Measurements of several laboratories.
Every numbered part comes from another study and shows a few of its results, in no order. Positions count from the first letter of the parent shown.

Study 1 — technique: protein binding microarray; molecule type: double-stranded DNA, one strand shown; matrix: in vitro; concentration: not given; baseline: not given; reading: higher = stronger binding; endpoint: E-score
Target: Histone acetyltransferase KAT6A, both winged helices, GST fusion (KAT6A, Homo sapiens, UniProt Q92794, residues 1-181)
Notes: 8-mer, flanks averaged, mean of 2 arrays, mostly near background
Residues (chain): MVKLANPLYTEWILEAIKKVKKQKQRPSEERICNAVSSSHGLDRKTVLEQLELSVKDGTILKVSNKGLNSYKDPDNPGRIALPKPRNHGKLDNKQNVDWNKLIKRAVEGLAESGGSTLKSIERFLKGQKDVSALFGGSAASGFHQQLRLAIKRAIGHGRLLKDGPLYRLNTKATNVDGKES
ATGTGTTG: -0.08
TCGTATCA: 0.0309
GTTATGCA: -0.105
AATGCTTC: -0.0464
GTGTTTCA: -0.0282
CCCTGCAC: -0.2
AATGGGTG: -0.282
AAAGGTAC: -0.0825
ACCATTAC: -0.0674
GCTACCCC: -0.0694
CCAACATC: -0.0153
AAGAATAC: 0.0163
GTCGAGAA: -0.157
GGCGGTCA: 0.194
CGGGCTAC: 0.155
CGCAAACG: 0.159
AAGACCAA: -0.032
CGGCTGTA: 0.201
CCGTACCC: 0.199

Study 2 — technique: protein-binding microarray; molecule type: double-stranded DNA, one strand shown; matrix: in vitro; concentration: 250 nM; notes: 60-bp whole probe; with: salmon DNA 0.4 mg/ml; baseline: random background probes; reading: higher = stronger binding; endpoint: log fluorescence; constant ends, left off below: GCCTAGCAC … GTCTTGATTCGCTTGACGCTGCTG
Target: Interferon regulatory factor 5, full length, phosphomimetic (IRF5, Homo sapiens, UniProt Q13568-2, residues 1-514, K96S/S451D/S453D/S456D/S462D)
TCAAGTTGTACTTTCTAACTGTGCTAG: 0.925 z-score
GTGGTTTTCATTATTGCTTCGTGCTAG: 2.39 z-score
GAATGTGTCTTAAATAGGAGAGTGCTA: 0.242 z-score
GACGGTTCCCTGTTCCTGACGTGCTAG: 0.11 z-score
GACGGTCTCGGTTTCCGGACGTGCTAG: 0.651 z-score
GAGGGACTGGACTATCGGGACGTGCTA: 0.496 z-score
GACGGTCTCCCTTTCCTGACGTGCTAG: -0.156 z-score
TTAGATATCAGACTCGATTAGTGCTAG: 0.178 z-score
TTAGGTCTCGGTCTCTGTTAGTGCTAG: 0.533 z-score
TCAACTGTGTGTTTGAGACTGTGCTAG: -0.376 z-score
TCAGGTATCGACTATCGGTTAGTGCTA: 7.78 z-score
TGATCTTCCTTCATGGCCTGGTGCTAG: -0.00447 z-score
TTAGAACTGAGACTGGATAAGTGCTAG: -0.194 z-score
GACGGACTGGGGACGGGGGACGTGCTA: 0.922 z-score
TAAGGTCTCGGACTGGGTTAGTGCTAG: -0.445 z-score
GACGGTATCGACTTTCGGTACGTGCTA: 9.42 z-score
TTAGGAATGCTACTGCTTTAGTGCTAG: -0.572 z-score
TATAAATTATCTTTAATCCTGTGCTAG: 0.67 z-score
GTCGATTTCAGTTCCGAGACGTGCTAG: 2.05 z-score

Study 3 — technique: DHFR PCA, deep sequencing; matrix: yeast; with: (+)-ABA 17 µM; baseline: wild-type fitted maximum; reading: higher = stronger binding; endpoint: relative binding score
Target: ABI1, truncated, D143A, DHFR fusion (Arabidopsis thaliana)
Notes: methotrexate growth selection, single substitutions
Starting sequence: PYL1, truncated, DHFR fusion (Arabidopsis thaliana); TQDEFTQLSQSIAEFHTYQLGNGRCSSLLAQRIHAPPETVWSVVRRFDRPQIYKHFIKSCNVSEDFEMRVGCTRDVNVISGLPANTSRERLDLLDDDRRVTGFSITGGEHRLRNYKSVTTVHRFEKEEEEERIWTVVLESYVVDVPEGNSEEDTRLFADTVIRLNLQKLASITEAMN
L82Q: 18.6%
L112M: 78.8%
R99W: 106%
I57H: -44.4%
L20S: 85.3%
G148H: 55%
Q19M: 70.4%
L20E: 86.5%
L28V: 79.2%
S87Y: 30.4%
G148V: 11.1%
D65T: 74.5%
A35I: 9.19%
I133Q: 94.5%
S27G: 86.9%

Study 4 — target: CCND2, cyclin fold, Cln2 fusion (human); technique: yeast growth competition, sequencing; matrix: yeast; notes: strong parent motif; baseline: not given; reading: higher = stronger binding; endpoint: normalised enrichment score
Starting sequence: INSM1 docking peptide (human); PKAIRKLHFEDEV
D11M: 1.34
H8V: 3.56
A3W: -0.489
D11I: 1.79
K6N: 1.17
E12F: 1.71
E12G: 1.74
D11R: 1.45
L7Q: -0.207
K6Y: 1.4
I4L: 0.674
E10N: 1.74
E10M: 1.42
I4C: 2.37
E12Q: 1.51
K2A: 1.41
D11H: 1.36

Study 5 — technique: RNA Bind-n-Seq; molecule type: RNA; matrix: in vitro; concentration: 365 nM; baseline: no-protein control; reading: higher = stronger binding; endpoint: RBNS enrichment (R)
Target: RNA binding protein fox-1 homolog 2, RRM domain, GST-SBP tag (RBFOX2, Homo sapiens, UniProt O43251-10, residues 100-194)
Notes: natural RNA segment, single round, ends assumed
Constant ends, left off below: GGGAGUUCUACAGUCCGACGAUC … UGGAAUUCUCGGGUGCCAA
Construct (chain): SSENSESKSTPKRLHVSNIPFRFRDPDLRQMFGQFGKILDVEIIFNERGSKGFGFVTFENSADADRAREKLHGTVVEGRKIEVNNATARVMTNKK
ACACCAUGUUGGCCAGGCUGGUCUCGAACUCCUGACCUCAAGUGAUCCACCCGCCUCAGUCUCCCAAAGUGCUGAGAUUACAGGCAUGAGUCACUACGCCCGGCCCAUGU: 0.199
AGGUUGAUUUUUGUGUUGAUCCAAAUCAGAAUAGCUAUUGAGUGUUUAAGUCAUGACUUUAUUUUUCUGGGCAUGCUAUAUAAACUUGAAUUUCCUAUGUAUUUUUAUUG: 1.17
UAUCGUUUUGCUUUGCUGACAUGUUUAUAAAGAAAGACCAUCAUACUUAAUAGUCUUUGGAGGUUUGUAAGGUGUUUUUUUGUUUUGUUUUAAUGUAUUUUAUUGAUUAU: 1.21
UCCUGUUUGGUUUUGGGAGGCAGGAAAAAAUCAAAACACAACACAACCAUUUCCUCUAUGUCCUGAGCUGGGACCUGCUGUCCUAAUGCUAAGGAUGAGGGCUGUCAAAC: 0.337
UGAAGACAUGGACCUCAACAAGGAUGGCGAGGUCCCUCCGGAGGAGGUCUCCACCUUCAUCAAGGCUCAAGUGAGUGAGGGCAAAGGACGCCUCAUGCCUGGGCAGGACC: 0.41
AACCUGUGGGUCAUCCCCAGGCUGAAUGGAGUACACACUAGAAGAGGGAUGAUGCCUAGCAUUGGGGCAGCAUCUGCUCAGCACAUGGAAAGGGACCUGGUUCCAUCUCC: 0.473
CCUCCCCCAUCGCCUCUUUCUCAUCCCUGAUUAACAGUGAAGUUUGAGUCUUGUCGUGAGUCCUACAGUGAGCACAGGCAGCUGGGGCUAAUAAAAAAAGAAGAAGAAGA: 0.311
GGCUGUGGCAGAUGCCAGCAGCUCUUACCAUCAGUCAGAGUCUUCAGGGUGUCAAGCUGUUUUCAUUUUUUAGGCAAAUAGAACAAAAGCCAUUUUGGUUCAUCCUGAUC: 0.284

Mixed results
PhoQ, residues 284 288 289 292 302 303 NLGVHL — fold induction (PhoP, residues 12 14 15 18 19 GHCSL (Escherichia coli, UniProt P23836); Sort-seq, refers to: YFP reporter; E. coli; PhoQ-PhoP variant library, with: 10 µM Mg2+; baseline: high Mg2+ state, higher = stronger signaling): 0.878

Repeated from above (study 5):
ACACCAUGUUGGCCAGGCUGGUCUCGAACUCCUGACCUCAAGUGAUCCACCCGCCUCAGUCUCCCAAAGUGCUGAGAUUACAGGCAUGAGUCACUACGCCCGGCCCAUGU: 0.199
AGGUUGAUUUUUGUGUUGAUCCAAAUCAGAAUAGCUAUUGAGUGUUUAAGUCAUGACUUUAUUUUUCUGGGCAUGCUAUAUAAACUUGAAUUUCCUAUGUAUUUUUAUUG: 1.17
UAUCGUUUUGCUUUGCUGACAUGUUUAUAAAGAAAGACCAUCAUACUUAAUAGUCUUUGGAGGUUUGUAAGGUGUUUUUUUGUUUUGUUUUAAUGUAUUUUAUUGAUUAU: 1.21
UCCUGUUUGGUUUUGGGAGGCAGGAAAAAAUCAAAACACAACACAACCAUUUCCUCUAUGUCCUGAGCUGGGACCUGCUGUCCUAAUGCUAAGGAUGAGGGCUGUCAAAC: 0.337
UGAAGACAUGGACCUCAACAAGGAUGGCGAGGUCCCUCCGGAGGAGGUCUCCACCUUCAUCAAGGCUCAAGUGAGUGAGGGCAAAGGACGCCUCAUGCCUGGGCAGGACC: 0.41
AACCUGUGGGUCAUCCCCAGGCUGAAUGGAGUACACACUAGAAGAGGGAUGAUGCCUAGCAUUGGGGCAGCAUCUGCUCAGCACAUGGAAAGGGACCUGGUUCCAUCUCC: 0.473
CCUCCCCCAUCGCCUCUUUCUCAUCCCUGAUUAACAGUGAAGUUUGAGUCUUGUCGUGAGUCCUACAGUGAGCACAGGCAGCUGGGGCUAAUAAAAAAAGAAGAAGAAGA: 0.311
GGCUGUGGCAGAUGCCAGCAGCUCUUACCAUCAGUCAGAGUCUUCAGGGUGUCAAGCUGUUUUCAUUUUUUAGGCAAAUAGAACAAAAGCCAUUUUGGUUCAUCCUGAUC: 0.284
